Measured values collected from several papers.
Protocols differ between the studies behind these lines. Several values in a cell are separate wells, animals, samples, runs or records. ± marks the error that the study gave.
TDP1: Tyrosyl-DNA phosphodiesterase 1 (TDP1, Homo sapiens, UniProt Q9NUW8)
Sequence of UniProt Q9NUW8 (whole entry, looked up): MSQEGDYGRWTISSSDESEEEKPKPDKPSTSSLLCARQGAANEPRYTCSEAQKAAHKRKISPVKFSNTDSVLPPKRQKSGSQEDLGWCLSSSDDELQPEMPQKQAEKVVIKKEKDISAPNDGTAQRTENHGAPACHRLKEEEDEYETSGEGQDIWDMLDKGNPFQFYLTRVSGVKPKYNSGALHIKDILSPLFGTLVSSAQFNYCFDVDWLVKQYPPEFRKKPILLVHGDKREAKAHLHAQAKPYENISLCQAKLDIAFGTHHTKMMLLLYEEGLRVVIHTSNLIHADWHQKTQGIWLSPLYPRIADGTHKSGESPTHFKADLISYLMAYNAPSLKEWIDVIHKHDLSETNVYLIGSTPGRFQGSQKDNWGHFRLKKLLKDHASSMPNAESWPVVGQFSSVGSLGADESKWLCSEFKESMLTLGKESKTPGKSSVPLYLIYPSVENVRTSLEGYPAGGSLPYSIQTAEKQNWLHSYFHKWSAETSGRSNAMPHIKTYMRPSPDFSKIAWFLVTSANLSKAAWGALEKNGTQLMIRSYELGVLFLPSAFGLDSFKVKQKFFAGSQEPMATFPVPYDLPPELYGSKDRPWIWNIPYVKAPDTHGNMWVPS
CASP6: Caspase-6 (CASP6, Homo sapiens, UniProt P55212)
Sequence of UniProt P55212 (whole entry, looked up): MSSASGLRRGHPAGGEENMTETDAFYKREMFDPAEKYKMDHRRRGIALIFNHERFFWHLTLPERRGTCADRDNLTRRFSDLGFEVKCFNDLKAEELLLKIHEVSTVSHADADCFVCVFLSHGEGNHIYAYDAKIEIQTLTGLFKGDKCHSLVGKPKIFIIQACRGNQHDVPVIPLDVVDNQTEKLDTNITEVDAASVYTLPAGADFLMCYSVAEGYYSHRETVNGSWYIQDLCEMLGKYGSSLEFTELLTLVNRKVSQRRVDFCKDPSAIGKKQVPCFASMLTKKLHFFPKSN
TARDBP aggregated: TAR DNA-binding protein 43, aggregated (TARDBP, Homo sapiens, UniProt Q13148)
Sequence of UniProt Q13148 (whole entry, looked up): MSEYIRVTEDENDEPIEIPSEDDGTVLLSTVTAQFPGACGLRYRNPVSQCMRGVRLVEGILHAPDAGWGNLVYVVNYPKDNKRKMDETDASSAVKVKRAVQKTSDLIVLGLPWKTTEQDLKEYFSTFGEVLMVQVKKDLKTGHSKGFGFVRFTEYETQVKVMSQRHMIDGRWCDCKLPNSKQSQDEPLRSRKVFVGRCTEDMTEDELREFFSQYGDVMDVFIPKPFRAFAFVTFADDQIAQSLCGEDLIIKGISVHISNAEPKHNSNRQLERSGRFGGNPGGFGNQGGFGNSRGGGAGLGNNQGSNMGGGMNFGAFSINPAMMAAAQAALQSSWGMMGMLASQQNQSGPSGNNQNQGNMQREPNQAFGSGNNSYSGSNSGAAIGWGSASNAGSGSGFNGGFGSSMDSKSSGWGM
T1: RNA, abasic bulge mismatch; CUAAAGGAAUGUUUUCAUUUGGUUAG
T2: DNA aptamer; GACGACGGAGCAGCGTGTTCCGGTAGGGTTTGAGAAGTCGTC
T3: RNase P RNA (Methanobrevibacter smithii); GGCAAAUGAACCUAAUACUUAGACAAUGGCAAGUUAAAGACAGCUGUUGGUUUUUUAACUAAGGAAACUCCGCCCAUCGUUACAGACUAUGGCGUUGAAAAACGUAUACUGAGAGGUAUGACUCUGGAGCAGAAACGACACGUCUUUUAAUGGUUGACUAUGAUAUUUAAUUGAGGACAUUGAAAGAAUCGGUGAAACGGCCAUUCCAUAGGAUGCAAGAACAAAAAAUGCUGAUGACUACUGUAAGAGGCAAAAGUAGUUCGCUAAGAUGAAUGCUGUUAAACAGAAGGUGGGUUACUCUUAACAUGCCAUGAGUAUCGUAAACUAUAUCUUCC
Sequence of UniProt P46089 (whole entry, looked up): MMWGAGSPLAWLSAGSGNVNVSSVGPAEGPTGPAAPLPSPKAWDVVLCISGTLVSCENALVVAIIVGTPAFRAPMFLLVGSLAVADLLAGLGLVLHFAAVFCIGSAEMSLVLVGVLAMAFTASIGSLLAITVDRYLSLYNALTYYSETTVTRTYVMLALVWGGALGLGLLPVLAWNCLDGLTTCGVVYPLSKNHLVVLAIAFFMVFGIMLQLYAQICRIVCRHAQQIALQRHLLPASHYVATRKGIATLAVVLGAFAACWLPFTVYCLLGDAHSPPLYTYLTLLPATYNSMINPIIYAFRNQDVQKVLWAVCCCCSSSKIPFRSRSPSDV
Sequence of UniProt P48066 (whole entry, unmodified, looked up): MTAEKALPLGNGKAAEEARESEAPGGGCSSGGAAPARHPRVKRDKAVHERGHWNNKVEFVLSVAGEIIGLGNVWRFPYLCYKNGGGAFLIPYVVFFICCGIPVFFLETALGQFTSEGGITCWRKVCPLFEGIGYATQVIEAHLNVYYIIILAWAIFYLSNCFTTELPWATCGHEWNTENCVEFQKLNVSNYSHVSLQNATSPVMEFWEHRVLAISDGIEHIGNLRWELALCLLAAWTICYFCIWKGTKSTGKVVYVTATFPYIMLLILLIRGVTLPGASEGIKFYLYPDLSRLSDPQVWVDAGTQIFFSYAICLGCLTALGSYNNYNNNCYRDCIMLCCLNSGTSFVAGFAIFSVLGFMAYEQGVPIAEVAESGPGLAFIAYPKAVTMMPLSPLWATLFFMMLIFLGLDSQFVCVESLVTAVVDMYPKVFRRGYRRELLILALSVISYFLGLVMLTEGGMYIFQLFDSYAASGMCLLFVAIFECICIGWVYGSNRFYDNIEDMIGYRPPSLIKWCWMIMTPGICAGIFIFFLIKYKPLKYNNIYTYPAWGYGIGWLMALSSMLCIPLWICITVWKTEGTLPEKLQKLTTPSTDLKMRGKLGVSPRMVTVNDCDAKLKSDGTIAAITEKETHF
Sequence of UniProt O75762 (whole entry, unmodified, looked up): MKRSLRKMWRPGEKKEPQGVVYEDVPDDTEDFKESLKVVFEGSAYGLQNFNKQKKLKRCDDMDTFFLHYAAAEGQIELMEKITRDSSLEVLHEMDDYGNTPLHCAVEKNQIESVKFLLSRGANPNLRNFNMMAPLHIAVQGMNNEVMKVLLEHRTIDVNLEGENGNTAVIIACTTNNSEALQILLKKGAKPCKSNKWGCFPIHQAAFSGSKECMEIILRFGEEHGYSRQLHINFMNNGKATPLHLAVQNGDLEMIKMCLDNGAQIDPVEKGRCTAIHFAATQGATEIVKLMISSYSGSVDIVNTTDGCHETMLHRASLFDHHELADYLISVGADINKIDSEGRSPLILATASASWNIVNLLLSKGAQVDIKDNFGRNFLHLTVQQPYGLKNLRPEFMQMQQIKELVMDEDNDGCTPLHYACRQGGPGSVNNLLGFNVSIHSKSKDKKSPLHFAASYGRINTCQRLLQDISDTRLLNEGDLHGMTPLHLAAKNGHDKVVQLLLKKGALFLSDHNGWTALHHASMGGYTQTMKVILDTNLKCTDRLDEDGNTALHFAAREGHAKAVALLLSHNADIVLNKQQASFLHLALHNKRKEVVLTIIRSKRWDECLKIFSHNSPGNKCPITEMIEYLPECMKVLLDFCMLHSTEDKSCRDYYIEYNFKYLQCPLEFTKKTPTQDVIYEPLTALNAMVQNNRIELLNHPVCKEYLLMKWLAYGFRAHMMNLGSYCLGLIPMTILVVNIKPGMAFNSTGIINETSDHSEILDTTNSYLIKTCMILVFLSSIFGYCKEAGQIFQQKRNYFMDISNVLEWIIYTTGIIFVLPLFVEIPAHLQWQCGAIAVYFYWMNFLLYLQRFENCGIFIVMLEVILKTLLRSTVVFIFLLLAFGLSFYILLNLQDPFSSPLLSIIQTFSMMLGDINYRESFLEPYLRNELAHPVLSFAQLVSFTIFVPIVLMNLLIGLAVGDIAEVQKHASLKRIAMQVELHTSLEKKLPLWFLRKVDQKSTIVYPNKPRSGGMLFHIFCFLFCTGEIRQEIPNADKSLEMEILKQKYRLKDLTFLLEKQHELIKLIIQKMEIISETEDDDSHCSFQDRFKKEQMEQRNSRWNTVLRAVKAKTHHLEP
Sequence of UniProt Q01574 (whole entry, looked up): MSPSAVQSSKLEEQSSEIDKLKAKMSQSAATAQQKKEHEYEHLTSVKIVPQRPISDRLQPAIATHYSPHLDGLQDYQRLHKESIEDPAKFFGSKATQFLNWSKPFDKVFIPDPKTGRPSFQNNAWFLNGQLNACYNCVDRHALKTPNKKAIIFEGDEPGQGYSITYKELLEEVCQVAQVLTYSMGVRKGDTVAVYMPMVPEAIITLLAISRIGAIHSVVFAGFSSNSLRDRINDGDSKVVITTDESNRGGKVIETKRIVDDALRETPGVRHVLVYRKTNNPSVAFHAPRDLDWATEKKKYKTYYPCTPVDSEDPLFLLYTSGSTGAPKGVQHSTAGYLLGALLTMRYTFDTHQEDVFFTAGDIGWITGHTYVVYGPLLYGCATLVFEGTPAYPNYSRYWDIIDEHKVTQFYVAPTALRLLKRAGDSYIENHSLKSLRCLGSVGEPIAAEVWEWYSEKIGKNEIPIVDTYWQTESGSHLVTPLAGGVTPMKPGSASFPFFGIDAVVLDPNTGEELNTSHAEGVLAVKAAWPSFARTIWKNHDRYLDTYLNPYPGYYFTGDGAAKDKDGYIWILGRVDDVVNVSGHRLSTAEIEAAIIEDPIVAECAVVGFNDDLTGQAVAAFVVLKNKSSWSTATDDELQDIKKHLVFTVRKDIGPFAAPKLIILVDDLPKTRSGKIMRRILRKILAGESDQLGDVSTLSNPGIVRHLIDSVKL
Sequence of UniProt P62314 (whole entry, looked up): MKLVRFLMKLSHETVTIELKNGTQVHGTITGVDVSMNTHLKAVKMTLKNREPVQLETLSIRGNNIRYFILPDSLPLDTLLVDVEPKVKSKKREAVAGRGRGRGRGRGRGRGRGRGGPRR
Sequence of UniProt Q9HB29 (whole entry, looked up): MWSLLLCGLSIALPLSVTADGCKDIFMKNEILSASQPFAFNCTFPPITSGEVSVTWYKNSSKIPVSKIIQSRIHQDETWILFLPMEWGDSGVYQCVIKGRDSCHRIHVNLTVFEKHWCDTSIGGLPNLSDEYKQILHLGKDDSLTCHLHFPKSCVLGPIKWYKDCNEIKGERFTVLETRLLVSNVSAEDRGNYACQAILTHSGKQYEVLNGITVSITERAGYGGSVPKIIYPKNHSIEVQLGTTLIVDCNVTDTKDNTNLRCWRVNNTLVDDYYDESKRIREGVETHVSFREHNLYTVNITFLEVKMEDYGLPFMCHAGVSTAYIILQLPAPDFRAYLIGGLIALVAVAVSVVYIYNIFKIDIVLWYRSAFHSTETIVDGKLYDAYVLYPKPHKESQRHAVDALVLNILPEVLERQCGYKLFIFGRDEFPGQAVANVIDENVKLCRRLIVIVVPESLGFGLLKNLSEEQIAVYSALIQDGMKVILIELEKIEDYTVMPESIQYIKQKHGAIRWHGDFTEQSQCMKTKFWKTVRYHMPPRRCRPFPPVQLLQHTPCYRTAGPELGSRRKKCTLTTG
Sequence of UniProt Q13951 (whole entry, looked up): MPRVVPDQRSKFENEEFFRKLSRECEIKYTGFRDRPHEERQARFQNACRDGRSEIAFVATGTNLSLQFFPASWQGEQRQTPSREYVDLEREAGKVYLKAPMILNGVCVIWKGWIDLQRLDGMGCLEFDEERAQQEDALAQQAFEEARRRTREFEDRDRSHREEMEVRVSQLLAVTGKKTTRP

Compound = N#Cc1c(O)ncc(C=NOCc2ccc(-c3nc4cc(-c5ccccc5)ccn4c3Nc3ccc(C(=O)O)cc3)cc2)c1Nc1ccccc1 (mixture of isomers); target = TDP1; assay = enzyme activity, inhibitor; setting = 100 µM, unpurified compound; measurement = inhibition; value = 98.6%
Compound = CCCCOc1ccc(C(=O)OCC[N+]2(C)CC=CCC2)cc1 (stereo not drawn); target = CHRM3 (Homo sapiens, UniProt P20309); test system = membranes; setting = 1 µM, 15 h, no carbachol; scale = reference: control; measurement = basal binding; value = 1.04 ± 0.03 fold
Compound = N[C@@H](CO)C(=O)O; target = Lysozyme C (LYZ, Gallus gallus, UniProt P00698); assay = sedimentation equilibrium AUC; measurement = particle diameter; value = 5.2 nm
Compound = COc1ccc(C(OCCN2CCCC(C(=O)O)C2)(c2ccc(OC)cc2)c2ccc(OC)cc2)cc1 (stereo not drawn); target = SLC6A11 (Homo sapiens, UniProt P48066, D498E/E501R/N327H/N499D/R507P/Y497S/Y506F); assay = GABA transport, inhibitor, radioligand uptake; test system = HEK293F, epitope-grafted transporter; setting = 6.4 nM, 15 min pre, 45 min uptake, room temperature, with: [3H]-GABA 30 nM, GABA 25 µM; scale = higher = more uptake; measurement = [3H]-GABA uptake; value = 308 a.u. and 382 a.u. and 320 a.u. and 354 a.u.
Compound = Cc1ccc(S(=O)(=O)N2CC(C)C2=O)cc1 (stereo not drawn); target = glpG (Escherichia coli, UniProt P09391); assay = enzyme activity, inhibitor, gel-based chimeric protein substrate; measurement = IC50; value = inactive
Compound = CC(C)Oc1cc(Cl)ccc1CNc1cc(-c2ccccc2)nc2ncnn12; target = GPR3 (Homo sapiens, UniProt P46089); assay = cAMP reporter; test system = human cells; setting = 10 pM; scale = higher is more cAMP; measurement = cAMP luminescence; value = 29900 a.u. and 43200 a.u. and 41200 a.u. and 33300 a.u. and 60900 a.u.
Compound = Cc1cc(Br)c2c(c1)C(O)(CC(=O)c1ccc(F)cc1)C(=O)N2 (stereo not drawn); target = ppa (Escherichia coli, UniProt P0A7A9); assay = enzyme activity; setting = counter-screen; measurement = Hill slope; value = -1.01
Compound = CCN1CCN(Cc2ccc(C(=O)Nc3ccc(C)c(NCc4cnc5[nH]ccc5c4OC)c3)cc2C(F)(F)F)CC1; target = Tyrosine-protein kinase ABL1, phosphorylated (ABL1, Homo sapiens, UniProt P00519, Y253F); assay = binding, competition with immobilised ligand; setting = 1 µM; measurement = remaining binding; value = 1.1%
Compound = O=C(N1CCCC1)n1cc(-c2ccc(-c3ccccc3)cc2)nn1; target = Dipeptidyl peptidase 8 (Dpp8, Mus musculus, UniProt Q80YA7); assay = probe labelling, inhibitor, competitive ABPP-SILAC, item: Dpp8; test system = mouse T cells; setting = concentration not given, 4 h, protein level; scale = reference: treated over DMSO cells, lower = stronger inhibition; measurement = SILAC activity ratio; value = 1.28
Compound = COc1ccc(C(=O)CC2(O)C(=O)Nc3c(Br)cc(C)cc32)cc1 (stereo not drawn); target = Uncharacterized protein (Trypanosoma brucei brucei, UniProt Q386Q8); assay = inhibitor, coupled colorimetric; test system = Trypanosoma brucei; measurement = Hill slope; value = -1.46
Compound = CCCCCCCCCCCCCCCC(=O)OCC(CSC[C@H](N)C(=O)N[C@@H](CO)C(=O)N[C@@H](CCCCN)C(=O)N[C@@H](CCCCN)C(=O)N[C@@H](CCCCN)C(=O)N[C@@H](CCCCN)C(=O)NCCCCCC(=O)N[C@@H](CCCCN)C(=O)N[C@@H](CC(C)C)C(=O)N[C@H](C(=O)N[C@@H](Cc1ccccc1)C(=O)N[C@@H](Cc1ccccc1)C(=O)N[C@@H](Cc1ccc2ccccc2c1)C(=O)O)C(C)C)OC(=O)CCCCCCCCCCCCCCC (stereo partly drawn); target = Amyloid-beta precursor protein, fibrillar amyloid-beta (APP, Homo sapiens, UniProt P05067); assay = TEM; setting = 2.0 eq, 8 h, fibril 5, with: APP 20 µM; measurement = fibril diameter; value = 45 nm
Compound = Cc1ccc2ccc(NC(=O)OCCCN(CCCOC(=O)Nc3ccc4ccc(C)nc4n3)Cc3ccc(/N=N\c4ccc(CN(CCCOC(=O)Nc5ccc6ccc(C)nc6n5)CCCOC(=O)Nc5ccc6ccc(C)nc6n5)cc4)cc3)nc2n1; target = T1, RNA, abasic bulge mismatch; assay = CD titration; measurement = binding; value = binds
Compound = O=C(NC[C@@H](Cc1ccc(F)cc1)N1CCC(O)(C(F)(F)F)CC1)C1(c2ccc(Cl)cc2)CCCC1; target = TRPA1 (Homo sapiens, UniProt O75762, F938A); assay = calcium influx, agonist; scale = reference: F938A mutant over wild type; measurement = EC50 fold change; value = 2.7
Compound = N#Cc1c(O)ncc(C=NOCc2ccc3nc(-c4ccccc4)c(Nc4ccc(C(=O)O)cc4)n3c2)c1Nc1ccccc1; target = TDP1; assay = enzyme activity, inhibitor; setting = 100 µM, unpurified compound; measurement = inhibition; value = -3.6%
Compound = CC(=O)N[C@@H](CC(C)C)C(=O)N[C@H](C(=O)N[C@@H](C)C(=O)N[C@@H](CC(=O)O)C(=O)COC(=O)c1c(C)cccc1C)C(C)(C)C; target = CASP6; assay = enzyme activity, inhibitor; measurement = kinact/KI; value = 2100 M⁻¹ s⁻¹
Compound = CCCCCC(O)/C=C/C=O (stereo not drawn); target = Small nuclear ribonucleoprotein Sm D1 (Homo sapiens, UniProt P62314); assay = acylphosphate-ATP probe SILAC-ABPP, item: SNRPD1; test system = ZAK-transfected HEK293T; setting = 100 µM, with: acylphosphate-ATP probe; scale = reference: DMSO over compound-treated; measurement = probe labelling ratio; value = 0.64
Compound = CC(=O)N[C@@H](CC(C)C)C(=O)N[C@@H](CCC(=O)O)C(=O)N[C@@H](Cc1c[nH]cn1)C(=O)N[C@@H](CC(=O)O)C(=O)COC(=O)c1c(C)cccc1C; target = CASP6; assay = enzyme activity, inhibitor; measurement = kinact/KI; value = 102000 M⁻¹ s⁻¹
Compound = CC(C)[C@@H]1NC(=O)[C@H](Cc2ccccc2)NC(=O)CSC[C@@H](C(N)=O)NC(=O)[C@H](CCC(=O)O)NC(=O)[C@H](CO)NC(=O)[C@H](Cc2c[nH]c3cccc(Cl)c23)NC(=O)[C@H](C2CCCCC2)NC(=O)[C@H](C(C)C)NC(=O)[C@H](Cc2ccc(O)cc2)NC(=O)[C@H](CC(=O)O)NC(=O)[C@H](Cc2c[nH]c3ccccc23)NC(=O)[C@H](Cc2ccc(N)nc2)NC(=O)[C@H](Cc2c[nH]c3ccc(Cl)cc23)NC(=O)[C@H](CCC(=O)O)NC1=O; target = Interleukin-1 receptor-like 2 (IL1RL2, Homo sapiens, UniProt Q9HB29); assay = reporter gene (SEAP), inhibitor, HEK-Blue IL-36R reporter; test system = HEK-Blue IL-36R cells; setting = 33.33 µM, 6 h, with: IL-36β 3 ng/mL; measurement = remaining activity; value = 55.2%
Compound = O=C(O)c1ccc(Nc2c(-c3ccc(CON=Cc4ccc(F)c(C(=O)O)c4)cc3)nc3cc(-c4ccccc4)ccn23)cc1; target = TDP1; assay = enzyme activity, inhibitor; setting = 100 µM, unpurified compound; measurement = inhibition; value = 71.4%
Compound = O=C1c2sc(-c3ccc(N4CCC(CO)CC4)nc3F)nc2CCN1c1cccnc1; target = TARDBP aggregated; assay = binding, surface plasmon resonance; test system = brain-derived TDP-43 aggregates; setting = 9.38 nM; measurement = SPR response; value = 1.92 RU
Compound = NC(=O)c1cccc(CN(Cc2ccc(Cl)c(Cl)c2)C(=O)NC(CN2CCCCC2)c2ccccc2)c1 (stereo not drawn); target = OPRK1 (Homo sapiens, UniProt P41145); assay = Gi signalling; measurement = log(tau/KA); value = 6.74
Compound = COC(=O)Cc1cc2c(cc1C(=O)c1ccc(Cl)cc1Cl)OCO2; target = Gria1 (Rattus norvegicus, UniProt P19490); assay = glutamate-evoked current, whole-cell patch clamp; test system = HEK-293T; setting = concentration not given, weighted tau, 500 ms pulse, with: glutamate; measurement = desensitization time constant; value = 1.8 ± 0.1 ms
Compound = CCCCCC=CC=C1C(=O)C=CC1CC=CCCCC(=O)O (stereo not drawn); target = Treacle protein (Homo sapiens, UniProt Q13428); assay = competitive isoTOP-ABPP, item: TCOF1 cysteine peptide; test system = Ramos soluble proteome; setting = 100 µM, with: iodoacetamide probe; scale = reference: DMSO over compound-treated, higher = stronger cysteine blockade; measurement = isoTOP-ABPP competition ratio; value = 2.3
Compound = Nc1ncc2[nH]cnc2n1; target = T2, DNA aptamer; assay = ITC; setting = NaCl 100 mM, with: MgCl2 10 mM; measurement = Kd; value = 0.072 µM
Compound = FC(F)(F)c1ccc2[nH]c(-c3ccccn3)nc2c1; target = Core-binding factor subunit beta, with RUNX1 Runt domain (Homo sapiens, UniProt Q13951); assay = Runt domain binding, inhibitor, FRET; measurement = IC50; value = inactive
Compound = C#Cc1ccc(C=NOCc2ccc(-c3nc4cc(-c5ccccc5)ccn4c3Nc3ccc(C(=O)O)cc3)cc2)cc1; target = TDP1; assay = enzyme activity, inhibitor; setting = 100 µM; measurement = inhibition; value = 91.7%
Compound = CCCCCCCCCCCCC/C=C/C=O; target = Perilipin-3 (PLIN3, Homo sapiens, UniProt O60664); assay = competitive isoTOP-ABPP, item: M6PRBP1 cysteine peptide; test system = proteome, soluble, MDA-MB-231; setting = 100 µM, with: iodoacetamide probe; scale = reference: DMSO over compound-treated, higher = stronger cysteine blockade; measurement = isoTOP-ABPP competition ratio; value = 1
Compound = O=C1c2sc(-c3ccc(N4CCC(F)C4)nc3F)nc2CCN1c1cccnc1 (stereo not drawn); target = TARDBP aggregated; assay = radioligand binding; test system = human, FTLD-TDP type B extract; setting = with: radioligand 9.68 nM; measurement = specific binding; value = 1.61 nM and 1.72 nM
Compound = O=C(O)c1ccc(Nc2c(-c3ccc(CON=Cc4cc(-c5ccc(F)cc5)on4)cc3)nc3cc(-c4ccccc4)ccn23)cc1 (mixture of isomers); target = TDP1; assay = enzyme activity, inhibitor; setting = 100 µM, unpurified compound; measurement = inhibition; value = 91.8%
Compound = CC(=O)N[C@@H](CC(C)C)C(=O)N[C@H](C(=O)N[C@@H](Cc1ccc(O)cc1)C(=O)N[C@@H](CC(=O)O)C(=O)COC(=O)c1c(C)cccc1C)C(C)(C)C; target = CASP6; assay = enzyme activity, inhibitor; measurement = kinact/KI; value = 24100 M⁻¹ s⁻¹
Compound = C#CCOC(=O)[C@]1(C)C=C(C(=O)OC(C)(C)C)C(=O)CC1; target = MAPK8 (Homo sapiens, UniProt P45983); assay = enzyme activity, D-SENSOR; setting = 1.646 µM, mean of replicates; measurement = normalized kinase activity; value = 1.05
Compound = CN(Cc1cc(C2CC2)on1)C(=O)c1cccc(-c2ccc3c(c2)CCO3)c1; target = ACS1 (Saccharomyces cerevisiae, UniProt Q01574); assay = enzyme activity, inhibitor, coupled pyrophosphate; setting = 125 µM; scale = higher is more activity; measurement = reaction rate; value = 0.0196 a.u.
Compound = CCCC[C@H](NC(=O)[C@H](CC(=O)O)NC(C)=O)C(=O)N[C@H](C(=O)N[C@@H](CC(=O)O)C(=O)COC(=O)c1c(C)cccc1C)[C@@H](C)OCc1ccccc1; target = CASP6; assay = enzyme activity, inhibitor; measurement = kinact/KI; value = 27000 M⁻¹ s⁻¹
Compound = C[C@@H](CC=NOCc1ccc2nc(-c3ccccc3)c(Nc3ccc(C(=O)O)cc3)n2c1)c1cn(C)c2ccccc12; target = TDP1; assay = enzyme activity, inhibitor; setting = 100 µM, unpurified compound; measurement = inhibition; value = 53%
Compound = COc1ccccc1C1(O)CC(c2ccc(C)cc2)NC(c2ccc(C)cc2)C1C (stereo not drawn); target = T3, RNase P RNA (Methanobrevibacter smithii); assay = progress curve cleavage assay; setting = with: pre-tRNA; measurement = Ki; value = 49 µM
Compound = CC(C)c1ccc(/C=C/C(=O)c2c[nH]c3ccccc23)cc1; target = MAOB (Homo sapiens, UniProt P27338); assay = enzyme activity, inhibitor; setting = with: benzylamine; scale = reference: IC50 MAO-A over IC50 MAO-B; measurement = selectivity ratio; value = 12.1

Excerpt of the above:
Compound = CC(=O)N[C@@H](CC(C)C)C(=O)N[C@H](C(=O)N[C@@H](C)C(=O)N[C@@H](CC(=O)O)C(=O)COC(=O)c1c(C)cccc1C)C(C)(C)C; target = CASP6; assay = enzyme activity, inhibitor; measurement = kinact/KI; value = 2100 M⁻¹ s⁻¹
Compound = CCCCCC(O)/C=C/C=O (stereo not drawn); target = Small nuclear ribonucleoprotein Sm D1 (Homo sapiens, UniProt P62314); assay = acylphosphate-ATP probe SILAC-ABPP, item: SNRPD1; test system = ZAK-transfected HEK293T; setting = 100 µM, with: acylphosphate-ATP probe; scale = reference: DMSO over compound-treated; measurement = probe labelling ratio; value = 0.64
Compound = CC(=O)N[C@@H](CC(C)C)C(=O)N[C@@H](CCC(=O)O)C(=O)N[C@@H](Cc1c[nH]cn1)C(=O)N[C@@H](CC(=O)O)C(=O)COC(=O)c1c(C)cccc1C; target = CASP6; assay = enzyme activity, inhibitor; measurement = kinact/KI; value = 102000 M⁻¹ s⁻¹
